Assay results gathered from unrelated publications.
“And” joins repeats or separate records; there may be more than shown. ± marks the error that the study gave. Values after ≈ are worked out from the molar mass of the structure shown.
BCHE: Cholinesterase (BCHE, Homo sapiens, UniProt P06276)
UniProt P06276, sequence (whole entry, looked up): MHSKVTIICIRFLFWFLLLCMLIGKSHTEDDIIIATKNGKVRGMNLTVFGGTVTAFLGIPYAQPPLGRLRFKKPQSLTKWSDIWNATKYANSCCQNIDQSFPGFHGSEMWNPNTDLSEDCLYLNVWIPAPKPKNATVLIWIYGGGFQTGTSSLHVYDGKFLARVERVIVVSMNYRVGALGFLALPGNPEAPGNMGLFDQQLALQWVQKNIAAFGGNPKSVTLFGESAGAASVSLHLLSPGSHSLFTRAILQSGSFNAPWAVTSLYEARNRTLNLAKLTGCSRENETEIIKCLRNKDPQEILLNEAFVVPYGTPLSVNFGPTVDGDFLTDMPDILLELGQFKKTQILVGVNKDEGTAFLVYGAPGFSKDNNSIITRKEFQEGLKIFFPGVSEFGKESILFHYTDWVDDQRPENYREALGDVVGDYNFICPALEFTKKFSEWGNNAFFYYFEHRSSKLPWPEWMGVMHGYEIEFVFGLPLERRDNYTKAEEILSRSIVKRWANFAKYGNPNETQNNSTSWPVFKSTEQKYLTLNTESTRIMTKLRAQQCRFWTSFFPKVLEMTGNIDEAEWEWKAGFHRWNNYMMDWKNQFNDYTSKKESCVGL

| Structure (SMILES) | tested on | test | test system | conditions | scale | quantity | result |
| --- | --- | --- | --- | --- | --- | --- | --- |
| Cc1cc(C(=O)NC(C)(C)COc2cccc3c2C(N)=NS(=O)(=O)N3)cc(C)n1 | Escherichia coli | Ames test, initial | WP2 uvrA | 5.00 µg/plate | reference: solvent control | revertant ratio | 1.1 |
| NC(=Nc1ccccc1)NC(=O)c1nc(Cl)c(N)nc1N | Plasmodium falciparum |  | 7G8 |  |  | IC50 | 10 µM |
| Fc1ccc(C2=CCNCC2)cc1 | Salmonella typhimurium | genotoxicity, SOS/umu test | TA1535/pSK1002 | 0.002 mg/mL, 4 h, without S9, full range |  | induction factor | 0.9 |
| C[C@@H](C1=C(CCN(C)C)Cc2ccccc21)c1ccccn1 | BCHE | inhibitor |  |  |  | IC50 | 2.1 ± 0.29 µM |
| O[C@@H](CNCCN1CCN(C(c2ccccc2)c2ccccc2)CC1)c1cc(Cl)cc2c1-c1ccc(Cl)cc1C2 | Plasmodium falciparum |  | 3D7 |  | reference: HepG2 CC50 over IC50 | selectivity index | 1910 |
| COc1cccc(-c2n[nH]c(SCc3ccccn3)n2)c1OC | Salmonella typhimurium | Ames test, preincubation | TA1535 | 0.50 mg/plate, without S9 |  | revertant colonies per plate | 16 |
| O=C(NC(=O)c1ccccc1Cl)Nc1ccc(Cl)cc1 | Ostrinia furnacalis | leaf dipping |  | 50 mg/L, 96 h |  | mortality | 23.3 ± 1.6% |
| CC(=O)N1CCC(C(=O)N2CCN3C(=O)c4cc(-c5ccccc5)ccc4NC(=O)C3C2)CC1 (stereo not shown) | Escherichia coli |  | WP2 uvrA | 5000 µg/plate, with rat liver S9 | reference: vehicle | revertant fold increase | 1 |
| [Cl-].[Cl-].[Pt+2].[Ru+2].c1ccc(-c2nccnc2-c2ccccn2)nc1.c1cnc2c(c1)ccc1cccnc12.c1cnc2c(c1)ccc1cccnc12 | Danio rerio |  | embryos | 15 µM, 0 h |  | survival rate | 100% |
| O=C(N/N=C/c1c(O)ccc2ccccc12)c1n[nH]c2c1CCC2 | Gag-Pol polyprotein, integrase (gag-pol, Human immunodeficiency virus 1, UniProt P12497) | 3'-processing activity, inhibitor |  | wild-type integrase |  | IC50 | > 100 µM |
| CCCCN(CCCC)CC(O)c1cc(Cl)cc2c1-c1ccc(Cl)cc1/C2=C/c1ccc(Cl)cc1 (stereo not shown) | Plasmodium falciparum |  | 3D7 |  | reference: HepG2 CC50 over IC50 | selectivity index | > 13000 |
| COc1ccnc(C(=O)N[C@H]2COC(=O)[C@H](Cc3ccccc3)[C@@H](OC(=O)C(C)C)[C@H](C)OC2=O)c1OCOC(=O)C(C)C | Lepomis macrochirus | mortality |  | water exposure, flow-through, 96 h |  | LC50 | 0.0138 µg/mL (≈ 0.0225 µM) |
| CCCN(CCc1ccsc1)C1CCc2c(O)cccc2C1 (stereo not shown) | BCHE | inhibitor |  |  |  | IC50 | 4.01 ± 0.27 µM |
| O=[N+]([O-])c1ccc(NC2CCNCC2)c(C(F)(F)F)c1 | Salmonella typhimurium | genotoxicity, SOS/umu test | TA1535/pSK1002 | 0.002 mg/mL, 4 h, with S9, full range |  | induction factor | 0.6 |
| [Cl-].[Cl-].[Pt+2].[Ru+2].c1ccc(-c2nc3ccccc3nc2-c2ccccn2)nc1.c1cnc2c(c1)ccc1cccnc12.c1cnc2c(c1)ccc1cccnc12 | Danio rerio |  | embryos | 60 µM, 48 h |  | hatching rate | 13.3 ± 6.1% |
| O=C(NCCN1CCCC1)c1cc(-c2ccc(CN3CCOCC3)cc2)nc2ccc(F)cc12 | Plasmodium falciparum | 18S rRNA qPCR | human | 150 mg |  | parasite clearance half-life | 2.2 h and 4 h and 3.9 h and 3.5 h and 4.5 h |
| O=[N+]([O-])c1ccc(N2CCC(NCCC(O)c3ccc(F)c4ccccc34)CC2)c(C(F)(F)F)c1 (stereo not shown) | Salmonella typhimurium | SOS/umu test | TA1535/pSK1002 | 6.1e-05 mg/mL, 4 h, without S9 | reference: untreated | induction factor | 0.6 |
| C[C@H](CCC(=O)NCCS(=O)(=O)O)[C@H]1CC[C@H]2[C@@H]3[C@H](O)C[C@@H]4C[C@H](O)CC[C@]4(C)[C@H]3C[C@H](O)[C@]12C | Plasmodium falciparum |  | 3D7 |  |  | IC50 | 6.31 µM |
| OC(CCN1CC=C(c2ccc(F)cc2)CC1)c1ccc(F)c2ccccc12 (stereo not shown) | Salmonella typhimurium | genotoxicity, SOS/umu test | TA1535/pSK1002 | 0.125 mg/mL, 4 h, with S9, lower range |  | induction factor | 0.9 |
| Nc1ccc2cc3ccccc3cc2c1 | Salmonella typhimurium | Ames test, initial | TA98 | 1.0 µg/plate, with: rat liver S9 | reference: solvent control | revertant ratio | 14.2 |
| O=[N+]([O-])c1ccc(N2CCN(CCC(O)c3ccc(F)cc3)CC2)c(C(F)(F)F)c1 (stereo not shown) | Salmonella typhimurium | SOS/umu test | TA1535/pSK1002, TGA medium | 0.000244 mg/mL, 4 h, with: 10% rat liver S9 |  | survival | 88.9% |
| [Cl-].[Cl-].[Pt+2].[Ru+2].c1ccc(-c2nc3cc4ccccc4cc3nc2-c2ccccn2)nc1.c1cnc2c(c1)ccc1cccnc12.c1cnc2c(c1)ccc1cccnc12 | Danio rerio |  | embryos | 15 µM, 12 h |  | survival rate | 100% |

For quick reference, copied from above:
| Structure (SMILES) | tested on | test | test system | conditions | scale | quantity | result |
| --- | --- | --- | --- | --- | --- | --- | --- |
| C[C@H](CCC(=O)NCCS(=O)(=O)O)[C@H]1CC[C@H]2[C@@H]3[C@H](O)C[C@@H]4C[C@H](O)CC[C@]4(C)[C@H]3C[C@H](O)[C@]12C | Plasmodium falciparum |  | 3D7 |  |  | IC50 | 6.31 µM |
| [Cl-].[Cl-].[Pt+2].[Ru+2].c1ccc(-c2nc3cc4ccccc4cc3nc2-c2ccccn2)nc1.c1cnc2c(c1)ccc1cccnc12.c1cnc2c(c1)ccc1cccnc12 | Danio rerio |  | embryos | 15 µM, 12 h |  | survival rate | 100% |
